{"data": "Experimental data from different studies", "note": "Every numbered part comes from another study and shows a few of its results, in no order. Substitutions count along the parent as printed.", "UniProt Q9HAZ1, sequence (whole entry, looked up)": "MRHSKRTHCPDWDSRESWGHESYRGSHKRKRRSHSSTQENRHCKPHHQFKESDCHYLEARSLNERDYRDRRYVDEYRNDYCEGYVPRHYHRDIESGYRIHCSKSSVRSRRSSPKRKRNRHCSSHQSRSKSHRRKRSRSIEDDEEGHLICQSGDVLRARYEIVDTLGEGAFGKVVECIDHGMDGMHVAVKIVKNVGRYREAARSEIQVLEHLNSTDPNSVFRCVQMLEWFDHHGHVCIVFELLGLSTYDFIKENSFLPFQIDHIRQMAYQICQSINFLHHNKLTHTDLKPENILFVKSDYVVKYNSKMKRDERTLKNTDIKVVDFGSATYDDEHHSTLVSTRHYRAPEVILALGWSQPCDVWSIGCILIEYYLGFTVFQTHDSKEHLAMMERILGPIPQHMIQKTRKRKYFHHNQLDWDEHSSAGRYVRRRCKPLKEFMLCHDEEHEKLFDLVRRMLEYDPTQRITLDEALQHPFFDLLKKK", "UniProt P42336, sequence (whole entry, unmodified, looked up)": "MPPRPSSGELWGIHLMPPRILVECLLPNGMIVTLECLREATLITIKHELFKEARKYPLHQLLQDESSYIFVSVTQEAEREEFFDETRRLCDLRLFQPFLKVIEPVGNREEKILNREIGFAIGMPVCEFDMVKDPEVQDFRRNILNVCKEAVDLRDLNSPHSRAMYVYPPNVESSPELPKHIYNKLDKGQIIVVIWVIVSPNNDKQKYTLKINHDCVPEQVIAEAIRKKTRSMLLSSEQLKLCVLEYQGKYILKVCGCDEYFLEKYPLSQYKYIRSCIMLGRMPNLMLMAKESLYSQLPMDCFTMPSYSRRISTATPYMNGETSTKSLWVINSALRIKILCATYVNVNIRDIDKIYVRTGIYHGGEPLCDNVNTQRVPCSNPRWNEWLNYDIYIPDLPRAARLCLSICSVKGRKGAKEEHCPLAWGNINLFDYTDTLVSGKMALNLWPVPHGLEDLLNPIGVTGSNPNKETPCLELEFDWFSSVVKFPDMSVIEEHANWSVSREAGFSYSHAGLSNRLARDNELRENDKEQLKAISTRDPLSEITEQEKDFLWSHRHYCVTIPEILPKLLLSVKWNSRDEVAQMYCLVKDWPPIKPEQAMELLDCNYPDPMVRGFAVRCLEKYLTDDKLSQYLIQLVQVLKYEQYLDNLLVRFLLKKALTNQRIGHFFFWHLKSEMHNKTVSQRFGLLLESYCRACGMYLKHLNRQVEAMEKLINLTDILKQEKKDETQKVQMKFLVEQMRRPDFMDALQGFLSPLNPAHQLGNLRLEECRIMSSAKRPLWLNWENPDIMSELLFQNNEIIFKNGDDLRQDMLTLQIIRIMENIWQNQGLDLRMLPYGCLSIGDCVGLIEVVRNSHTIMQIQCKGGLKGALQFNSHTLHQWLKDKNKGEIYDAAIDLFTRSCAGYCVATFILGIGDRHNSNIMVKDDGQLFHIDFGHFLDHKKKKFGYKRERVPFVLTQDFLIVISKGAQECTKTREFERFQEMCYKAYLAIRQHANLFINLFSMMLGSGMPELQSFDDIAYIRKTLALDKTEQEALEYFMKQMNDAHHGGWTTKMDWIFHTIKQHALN", "UniProt Q13237, sequence (whole entry, looked up)": "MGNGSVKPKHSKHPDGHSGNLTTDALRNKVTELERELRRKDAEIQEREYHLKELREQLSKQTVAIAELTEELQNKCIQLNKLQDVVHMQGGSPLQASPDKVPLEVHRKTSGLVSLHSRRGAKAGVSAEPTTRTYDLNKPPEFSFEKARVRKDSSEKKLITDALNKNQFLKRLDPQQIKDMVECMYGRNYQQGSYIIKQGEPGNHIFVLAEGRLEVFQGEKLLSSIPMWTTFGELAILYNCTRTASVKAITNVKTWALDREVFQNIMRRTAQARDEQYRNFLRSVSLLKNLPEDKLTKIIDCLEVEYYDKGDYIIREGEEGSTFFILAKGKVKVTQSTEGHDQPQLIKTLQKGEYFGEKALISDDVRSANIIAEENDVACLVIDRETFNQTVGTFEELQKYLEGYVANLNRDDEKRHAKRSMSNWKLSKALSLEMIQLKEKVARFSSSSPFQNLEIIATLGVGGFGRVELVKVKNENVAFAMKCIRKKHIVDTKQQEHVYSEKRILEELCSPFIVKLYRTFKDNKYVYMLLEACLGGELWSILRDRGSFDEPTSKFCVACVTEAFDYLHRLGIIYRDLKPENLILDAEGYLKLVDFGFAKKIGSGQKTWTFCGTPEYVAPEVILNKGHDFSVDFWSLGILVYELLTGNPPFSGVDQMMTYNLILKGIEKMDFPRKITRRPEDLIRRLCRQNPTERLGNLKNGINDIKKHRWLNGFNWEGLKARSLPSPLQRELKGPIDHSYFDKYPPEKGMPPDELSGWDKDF", "UniProt P51955, sequence (whole entry, looked up)": "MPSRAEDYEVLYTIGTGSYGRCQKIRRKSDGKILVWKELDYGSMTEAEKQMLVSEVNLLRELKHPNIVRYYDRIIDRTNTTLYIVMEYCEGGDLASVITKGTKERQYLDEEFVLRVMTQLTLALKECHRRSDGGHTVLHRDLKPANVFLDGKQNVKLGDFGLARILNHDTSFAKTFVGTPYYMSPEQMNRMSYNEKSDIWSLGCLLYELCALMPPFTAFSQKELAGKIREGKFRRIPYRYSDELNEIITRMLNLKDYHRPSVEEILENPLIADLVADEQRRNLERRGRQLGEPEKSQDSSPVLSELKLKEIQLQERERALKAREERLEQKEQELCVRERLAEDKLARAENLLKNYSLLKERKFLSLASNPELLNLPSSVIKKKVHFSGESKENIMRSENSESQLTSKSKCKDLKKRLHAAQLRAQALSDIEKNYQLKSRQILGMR", "UniProt P35968, sequence (whole entry, looked up)": "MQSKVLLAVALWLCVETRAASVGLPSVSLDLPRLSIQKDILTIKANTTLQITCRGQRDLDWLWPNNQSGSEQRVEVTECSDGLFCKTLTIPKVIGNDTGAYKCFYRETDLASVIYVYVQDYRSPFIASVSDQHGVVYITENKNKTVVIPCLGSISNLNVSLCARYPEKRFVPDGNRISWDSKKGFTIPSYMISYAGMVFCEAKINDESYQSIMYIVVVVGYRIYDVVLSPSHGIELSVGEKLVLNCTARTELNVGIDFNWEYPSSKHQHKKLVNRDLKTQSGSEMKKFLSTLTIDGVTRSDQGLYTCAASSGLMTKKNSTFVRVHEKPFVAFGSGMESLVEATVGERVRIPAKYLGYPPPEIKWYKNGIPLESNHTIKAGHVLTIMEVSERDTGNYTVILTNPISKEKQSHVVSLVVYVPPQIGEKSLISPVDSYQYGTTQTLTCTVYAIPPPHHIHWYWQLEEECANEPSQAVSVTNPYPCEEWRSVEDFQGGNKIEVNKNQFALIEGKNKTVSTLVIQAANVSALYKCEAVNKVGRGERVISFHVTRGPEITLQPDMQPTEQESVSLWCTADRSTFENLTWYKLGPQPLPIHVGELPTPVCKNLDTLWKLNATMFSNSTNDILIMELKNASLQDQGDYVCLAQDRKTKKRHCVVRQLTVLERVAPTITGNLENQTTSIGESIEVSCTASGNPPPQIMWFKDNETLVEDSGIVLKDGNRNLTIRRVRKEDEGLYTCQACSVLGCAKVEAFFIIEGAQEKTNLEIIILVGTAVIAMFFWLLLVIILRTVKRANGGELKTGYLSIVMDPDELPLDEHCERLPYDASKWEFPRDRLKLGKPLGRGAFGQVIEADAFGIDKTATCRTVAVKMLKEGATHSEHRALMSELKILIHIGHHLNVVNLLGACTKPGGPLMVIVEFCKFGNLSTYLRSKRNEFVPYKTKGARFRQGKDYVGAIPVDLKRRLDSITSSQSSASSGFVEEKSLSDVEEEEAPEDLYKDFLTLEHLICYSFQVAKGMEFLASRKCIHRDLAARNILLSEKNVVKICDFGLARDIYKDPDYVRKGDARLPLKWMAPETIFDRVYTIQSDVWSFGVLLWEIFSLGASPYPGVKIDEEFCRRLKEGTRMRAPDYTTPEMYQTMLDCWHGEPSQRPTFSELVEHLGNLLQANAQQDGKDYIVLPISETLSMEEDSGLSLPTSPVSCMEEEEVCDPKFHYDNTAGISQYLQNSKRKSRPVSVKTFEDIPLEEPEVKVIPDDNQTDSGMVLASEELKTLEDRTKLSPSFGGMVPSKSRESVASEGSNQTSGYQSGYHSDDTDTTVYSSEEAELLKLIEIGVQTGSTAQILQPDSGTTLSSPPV", "UniProt Q13705, sequence (whole entry, looked up)": "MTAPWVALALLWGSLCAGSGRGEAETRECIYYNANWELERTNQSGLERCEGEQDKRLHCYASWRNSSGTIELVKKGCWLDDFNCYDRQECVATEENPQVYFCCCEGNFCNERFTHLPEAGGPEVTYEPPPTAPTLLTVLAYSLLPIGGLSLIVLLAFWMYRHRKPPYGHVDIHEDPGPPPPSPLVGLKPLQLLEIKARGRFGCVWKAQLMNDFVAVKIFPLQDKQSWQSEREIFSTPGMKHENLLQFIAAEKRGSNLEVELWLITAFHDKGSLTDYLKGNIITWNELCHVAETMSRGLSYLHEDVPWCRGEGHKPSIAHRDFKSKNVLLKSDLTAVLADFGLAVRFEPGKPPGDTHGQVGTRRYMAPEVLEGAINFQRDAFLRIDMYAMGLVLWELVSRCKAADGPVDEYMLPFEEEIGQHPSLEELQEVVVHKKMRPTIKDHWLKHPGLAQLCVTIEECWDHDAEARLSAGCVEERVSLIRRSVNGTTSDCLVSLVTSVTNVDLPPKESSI"}
{"data": "Sample 1", "SMILES": "Nc1c(C(=O)NCc2ccc(C(=O)NCCCC3CCCCC3)cc2)cnn1-c1ccccc1", "read-out": "cell-free assay", "technique": "competition with immobilised ligand", "concentration": "0.1 µM"}
{"target": "cGMP-dependent protein kinase 2 (PRKG2, Homo sapiens, UniProt Q13237)", "remaining binding": "96%"}
{"target": "Dual specificity protein kinase CLK4 (CLK4, Homo sapiens, UniProt Q9HAZ1)", "remaining binding": "96%"}
{"target": "Activin receptor type-2B (ACVR2B, Homo sapiens, UniProt Q13705)", "remaining binding": "100%"}
{"target": "Phosphatidylinositol 4,5-bisphosphate 3-kinase catalytic subunit alpha isoform (PIK3CA, Homo sapiens, UniProt P42336, H1047Y)", "remaining binding": "77%"}
{"target": "Serine/threonine-protein kinase Nek2 (NEK2, Homo sapiens, UniProt P51955)", "remaining binding": "100%"}
{"target": "Tyrosine-protein kinase ABL1, non-phosphorylated (ABL1, Homo sapiens, UniProt P00519, H396P)", "remaining binding": "80%"}
{"target": "Vascular endothelial growth factor receptor 2 (KDR, Homo sapiens, UniProt P35968)", "remaining binding": "100%"}
{"data": "Sample 2", "target": "CEP164, C-terminal peptide (human)", "technique": "DHFR complementation, deep sequencing", "medium": "yeast", "notes": "single substitutions, model-inferred values", "relative to": "wild type", "direction": "higher = weaker binding", "starting sequence": "PDZK1, PDZ domain 2 (human); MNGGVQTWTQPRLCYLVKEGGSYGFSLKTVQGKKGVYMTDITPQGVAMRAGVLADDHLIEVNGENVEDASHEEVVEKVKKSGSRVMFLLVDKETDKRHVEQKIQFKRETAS; partner HNRVKVYRF"}
{"Variant": "A47H", "binding free energy change": "0.975 kcal/mol"}
{"Variant": "G35L", "binding free energy change": "0.764 kcal/mol"}
{"Variant": "I41N", "binding free energy change": "1.77 kcal/mol"}
{"Variant": "V74E", "binding free energy change": "1.11 kcal/mol"}
{"Variant": "L88D", "binding free energy change": "2.2 kcal/mol"}
{"Variant": "V5W", "binding free energy change": "0.0333 kcal/mol"}
{"Variant": "I103D", "binding free energy change": "-0.0914 kcal/mol"}
{"Variant": "H98I", "binding free energy change": "-0.0771 kcal/mol"}
{"data": "Sample 3", "target": "ABI1, truncated, D143A, DHFR fusion (Arabidopsis thaliana)", "technique": "DHFR PCA, deep sequencing", "medium": "yeast", "notes": "methotrexate growth selection, single substitutions", "added": "(+)-ABA 4.8 µM", "relative to": "wild-type fitted maximum", "direction": "higher = stronger binding", "starting sequence": "PYL1, truncated, DHFR fusion (Arabidopsis thaliana); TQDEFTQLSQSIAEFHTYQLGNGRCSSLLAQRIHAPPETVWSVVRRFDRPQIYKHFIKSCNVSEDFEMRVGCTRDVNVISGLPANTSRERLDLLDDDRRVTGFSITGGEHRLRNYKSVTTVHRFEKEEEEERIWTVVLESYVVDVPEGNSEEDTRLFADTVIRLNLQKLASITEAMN; partner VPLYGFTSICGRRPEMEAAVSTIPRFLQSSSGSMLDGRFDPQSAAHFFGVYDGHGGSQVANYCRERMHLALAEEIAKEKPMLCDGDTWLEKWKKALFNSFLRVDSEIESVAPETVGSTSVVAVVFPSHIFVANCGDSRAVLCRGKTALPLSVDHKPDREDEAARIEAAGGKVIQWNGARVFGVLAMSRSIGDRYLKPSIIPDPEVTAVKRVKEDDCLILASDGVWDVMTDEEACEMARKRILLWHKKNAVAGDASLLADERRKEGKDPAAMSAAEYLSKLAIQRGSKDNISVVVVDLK"}
{"Variant": "L28S", "relative binding score [%]": 6.7}
{"Variant": "W41K", "relative binding score [%]": -4.93}
{"Variant": "I105F", "relative binding score [%]": -4.61}
{"Variant": "F47E", "relative binding score [%]": -7.23}
{"Variant": "S9L", "relative binding score [%]": 50.7}
{"Variant": "P37R", "relative binding score [%]": 1.61}
{"Variant": "E89G", "relative binding score [%]": 9.2}
{"Variant": "E139T", "relative binding score [%]": 83}
{"data": "Sample 4", "target": "Histone acetyltransferase KAT6A, winged helix 1, GST fusion (KAT6A, Homo sapiens, UniProt Q92794, residues 1-85)", "technique": "protein binding microarray", "molecule type": "double-stranded DNA, one strand shown", "medium": "in vitro", "concentration": "not given", "notes": "8-mer, flanks averaged, mean of 2 arrays, mostly near background", "relative to": "not given", "direction": "higher = stronger binding", "Target sequence (chain)": "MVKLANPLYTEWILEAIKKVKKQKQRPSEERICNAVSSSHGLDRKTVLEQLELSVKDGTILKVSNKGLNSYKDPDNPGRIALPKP"}
{"Strand": "CGGAAGAC", "E-score": 0.212}
{"Strand": "ACTTTGTG", "E-score": -0.0849}
{"Strand": "CCTGAAGA", "E-score": -0.0811}
{"Strand": "CAGCCCCC", "E-score": 0.0136}
{"Strand": "CTTTCTTC", "E-score": 0.0314}
{"Strand": "ACCAATCT", "E-score": -0.212}
{"Strand": "ATATTAAG", "E-score": -0.103}
{"Strand": "CCCGACAC", "E-score": 0.0847}
